{"data": "Assay results gathered from unrelated publications", "note": "A part holds a random share of what one study measured.", "sequence of UniProt P42336 (whole entry, unmodified, looked up)": "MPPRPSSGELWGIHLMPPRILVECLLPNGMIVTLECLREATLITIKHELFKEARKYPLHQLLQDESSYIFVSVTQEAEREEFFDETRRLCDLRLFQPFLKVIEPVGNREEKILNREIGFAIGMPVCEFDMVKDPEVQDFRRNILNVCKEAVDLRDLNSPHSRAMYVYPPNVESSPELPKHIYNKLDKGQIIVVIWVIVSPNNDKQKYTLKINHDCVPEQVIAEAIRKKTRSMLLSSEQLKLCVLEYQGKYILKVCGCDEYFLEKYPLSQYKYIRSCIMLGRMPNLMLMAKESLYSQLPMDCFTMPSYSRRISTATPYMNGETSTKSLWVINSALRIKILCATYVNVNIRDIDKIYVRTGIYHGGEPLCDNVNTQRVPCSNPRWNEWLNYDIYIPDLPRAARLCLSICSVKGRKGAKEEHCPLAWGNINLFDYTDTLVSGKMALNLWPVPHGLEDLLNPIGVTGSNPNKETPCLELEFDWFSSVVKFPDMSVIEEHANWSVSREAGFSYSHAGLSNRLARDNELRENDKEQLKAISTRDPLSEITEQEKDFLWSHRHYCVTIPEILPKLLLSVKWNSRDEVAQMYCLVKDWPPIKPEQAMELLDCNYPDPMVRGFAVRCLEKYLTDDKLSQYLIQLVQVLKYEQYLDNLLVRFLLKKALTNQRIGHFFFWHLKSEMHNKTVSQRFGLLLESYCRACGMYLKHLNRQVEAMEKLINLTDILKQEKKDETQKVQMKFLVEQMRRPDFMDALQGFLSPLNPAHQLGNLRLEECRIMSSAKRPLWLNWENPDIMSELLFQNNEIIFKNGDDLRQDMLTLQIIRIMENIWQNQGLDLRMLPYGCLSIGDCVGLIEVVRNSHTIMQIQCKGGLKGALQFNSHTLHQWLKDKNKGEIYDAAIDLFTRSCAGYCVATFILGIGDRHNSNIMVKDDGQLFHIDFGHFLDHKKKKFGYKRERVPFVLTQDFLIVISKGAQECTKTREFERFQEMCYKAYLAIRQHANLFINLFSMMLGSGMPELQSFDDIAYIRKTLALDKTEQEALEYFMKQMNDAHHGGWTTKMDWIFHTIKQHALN", "sequence of UniProt Q02763 (whole entry, looked up)": "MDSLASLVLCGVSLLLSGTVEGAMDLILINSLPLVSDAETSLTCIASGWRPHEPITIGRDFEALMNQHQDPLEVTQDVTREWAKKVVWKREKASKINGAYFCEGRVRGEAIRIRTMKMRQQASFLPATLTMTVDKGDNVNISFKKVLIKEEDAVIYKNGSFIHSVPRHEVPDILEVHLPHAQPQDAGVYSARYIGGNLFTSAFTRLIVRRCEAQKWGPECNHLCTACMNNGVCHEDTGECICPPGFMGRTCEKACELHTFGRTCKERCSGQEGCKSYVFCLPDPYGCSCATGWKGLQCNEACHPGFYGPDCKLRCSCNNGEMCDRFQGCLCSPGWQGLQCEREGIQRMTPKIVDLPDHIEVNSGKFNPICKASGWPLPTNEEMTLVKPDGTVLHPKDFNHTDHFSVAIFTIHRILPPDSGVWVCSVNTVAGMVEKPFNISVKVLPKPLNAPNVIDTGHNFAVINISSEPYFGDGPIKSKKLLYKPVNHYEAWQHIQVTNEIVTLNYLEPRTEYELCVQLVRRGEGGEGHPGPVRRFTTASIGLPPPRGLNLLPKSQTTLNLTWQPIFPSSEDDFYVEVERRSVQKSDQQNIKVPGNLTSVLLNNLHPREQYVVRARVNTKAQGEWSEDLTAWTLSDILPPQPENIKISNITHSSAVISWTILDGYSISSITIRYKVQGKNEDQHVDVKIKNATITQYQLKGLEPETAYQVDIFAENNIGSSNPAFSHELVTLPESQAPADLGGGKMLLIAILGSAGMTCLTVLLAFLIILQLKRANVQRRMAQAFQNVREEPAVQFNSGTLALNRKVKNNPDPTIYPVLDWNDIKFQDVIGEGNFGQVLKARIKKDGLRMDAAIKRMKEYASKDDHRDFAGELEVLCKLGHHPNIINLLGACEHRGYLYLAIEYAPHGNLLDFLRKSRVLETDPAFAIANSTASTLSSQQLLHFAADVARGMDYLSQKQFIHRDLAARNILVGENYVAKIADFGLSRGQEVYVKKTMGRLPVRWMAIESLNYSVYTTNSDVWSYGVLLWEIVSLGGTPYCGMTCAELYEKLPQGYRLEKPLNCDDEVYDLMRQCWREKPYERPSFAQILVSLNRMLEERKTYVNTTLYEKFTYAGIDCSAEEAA", "sequence of UniProt Q8IYT8 (whole entry, looked up)": "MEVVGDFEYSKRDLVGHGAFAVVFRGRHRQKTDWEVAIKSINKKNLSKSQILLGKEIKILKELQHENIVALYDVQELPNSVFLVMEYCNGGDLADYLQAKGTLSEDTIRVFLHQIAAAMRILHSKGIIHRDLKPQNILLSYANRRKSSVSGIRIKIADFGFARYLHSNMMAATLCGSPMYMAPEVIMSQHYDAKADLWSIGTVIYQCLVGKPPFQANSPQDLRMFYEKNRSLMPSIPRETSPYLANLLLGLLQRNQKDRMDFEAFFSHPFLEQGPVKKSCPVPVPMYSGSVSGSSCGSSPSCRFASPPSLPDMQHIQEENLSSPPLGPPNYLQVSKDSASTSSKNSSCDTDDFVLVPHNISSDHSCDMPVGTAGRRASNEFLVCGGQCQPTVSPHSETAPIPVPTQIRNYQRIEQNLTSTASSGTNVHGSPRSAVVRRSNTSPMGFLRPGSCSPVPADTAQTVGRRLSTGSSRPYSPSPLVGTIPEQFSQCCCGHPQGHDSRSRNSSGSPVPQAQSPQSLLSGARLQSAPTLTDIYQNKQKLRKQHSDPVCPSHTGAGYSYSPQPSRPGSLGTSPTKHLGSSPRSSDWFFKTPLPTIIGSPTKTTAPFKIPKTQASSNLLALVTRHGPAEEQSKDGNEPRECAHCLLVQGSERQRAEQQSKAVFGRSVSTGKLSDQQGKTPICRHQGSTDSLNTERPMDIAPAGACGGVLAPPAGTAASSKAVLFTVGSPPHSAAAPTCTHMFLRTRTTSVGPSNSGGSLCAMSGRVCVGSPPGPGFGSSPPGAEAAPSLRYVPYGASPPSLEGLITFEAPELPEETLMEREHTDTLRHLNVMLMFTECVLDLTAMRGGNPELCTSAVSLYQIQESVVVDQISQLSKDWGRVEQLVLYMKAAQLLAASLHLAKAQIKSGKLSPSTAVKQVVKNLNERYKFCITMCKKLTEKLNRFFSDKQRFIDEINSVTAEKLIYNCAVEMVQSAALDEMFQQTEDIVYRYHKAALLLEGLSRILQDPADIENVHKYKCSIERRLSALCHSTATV", "sequence of UniProt Q9NPC1 (whole entry, looked up)": "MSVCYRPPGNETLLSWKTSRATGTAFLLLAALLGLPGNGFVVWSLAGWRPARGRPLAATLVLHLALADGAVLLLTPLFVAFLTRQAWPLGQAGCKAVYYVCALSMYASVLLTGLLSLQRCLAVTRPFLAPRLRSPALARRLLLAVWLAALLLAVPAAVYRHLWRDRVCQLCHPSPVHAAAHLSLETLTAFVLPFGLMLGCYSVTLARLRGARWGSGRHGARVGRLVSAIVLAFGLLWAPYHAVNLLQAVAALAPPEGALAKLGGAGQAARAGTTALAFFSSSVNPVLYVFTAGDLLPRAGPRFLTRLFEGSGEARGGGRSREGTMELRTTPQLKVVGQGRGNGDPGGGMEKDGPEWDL", "sequence of UniProt Q6PHR2 (whole entry, looked up)": "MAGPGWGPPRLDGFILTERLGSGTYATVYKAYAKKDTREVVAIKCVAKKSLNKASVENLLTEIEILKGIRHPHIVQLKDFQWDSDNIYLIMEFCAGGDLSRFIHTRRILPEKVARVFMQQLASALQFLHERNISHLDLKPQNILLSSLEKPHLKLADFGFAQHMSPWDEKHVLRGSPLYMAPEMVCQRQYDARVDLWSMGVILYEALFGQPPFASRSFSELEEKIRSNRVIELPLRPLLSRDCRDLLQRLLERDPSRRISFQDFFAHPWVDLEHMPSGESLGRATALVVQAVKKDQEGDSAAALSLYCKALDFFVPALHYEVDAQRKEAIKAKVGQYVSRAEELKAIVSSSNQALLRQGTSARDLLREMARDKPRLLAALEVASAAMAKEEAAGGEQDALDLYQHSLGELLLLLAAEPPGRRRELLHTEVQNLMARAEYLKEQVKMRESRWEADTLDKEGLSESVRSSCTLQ", "sequence of UniProt P78368 (whole entry, looked up)": "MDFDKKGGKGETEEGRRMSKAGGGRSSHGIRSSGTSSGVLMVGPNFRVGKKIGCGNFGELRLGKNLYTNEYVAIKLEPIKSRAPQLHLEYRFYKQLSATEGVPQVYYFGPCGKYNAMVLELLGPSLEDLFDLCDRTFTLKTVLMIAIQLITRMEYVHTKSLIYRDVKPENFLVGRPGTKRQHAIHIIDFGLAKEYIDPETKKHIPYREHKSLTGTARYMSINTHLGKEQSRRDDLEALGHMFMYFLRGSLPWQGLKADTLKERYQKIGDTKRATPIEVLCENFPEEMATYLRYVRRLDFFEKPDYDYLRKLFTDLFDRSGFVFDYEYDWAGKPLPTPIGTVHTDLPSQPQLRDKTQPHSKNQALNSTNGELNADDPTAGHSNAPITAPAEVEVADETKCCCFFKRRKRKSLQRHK", "sequence of UniProt Q8WTQ7 (whole entry, looked up)": "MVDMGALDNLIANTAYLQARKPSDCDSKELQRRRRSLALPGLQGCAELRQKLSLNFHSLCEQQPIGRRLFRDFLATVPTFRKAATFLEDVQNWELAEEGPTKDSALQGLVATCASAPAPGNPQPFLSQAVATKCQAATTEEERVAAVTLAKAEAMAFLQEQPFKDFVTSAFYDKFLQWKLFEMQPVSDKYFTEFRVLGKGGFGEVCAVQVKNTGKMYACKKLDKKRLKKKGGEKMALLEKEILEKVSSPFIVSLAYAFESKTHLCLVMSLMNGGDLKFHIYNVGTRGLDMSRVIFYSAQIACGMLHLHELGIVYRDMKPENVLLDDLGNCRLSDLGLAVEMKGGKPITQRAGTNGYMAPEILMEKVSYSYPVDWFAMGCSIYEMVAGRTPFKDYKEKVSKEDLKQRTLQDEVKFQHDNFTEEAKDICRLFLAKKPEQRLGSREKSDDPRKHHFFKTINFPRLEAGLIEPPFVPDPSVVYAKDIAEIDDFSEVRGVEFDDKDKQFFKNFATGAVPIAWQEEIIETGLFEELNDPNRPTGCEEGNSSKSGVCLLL"}
{"data": "Study 1", "Compound": "Cc1ccc(NC(=O)c2ccc(CN3CCN(C)CC3)cc2)cc1Nc1nccc(-c2cccnc2)n1", "read-out": "enzyme activity", "action": "inhibitor", "tested at": "0.5 µM", "baseline": "control"}
{"target": "Casein kinase I isoform gamma-2 (CSNK1G2, Homo sapiens, UniProt P78368)", "remaining activity [%]": 96.6}
{"target": "Tyrosine-protein kinase JAK3 (JAK3, Homo sapiens, UniProt P52333)", "remaining activity [%]": 98}
{"target": "MAP kinase-activated protein kinase 2 (MAPKAPK2, Homo sapiens, UniProt P49137)", "remaining activity [%]": 97.9}
{"target": "Mitogen-activated protein kinase kinase kinase 14 (MAP3K14, Homo sapiens, UniProt Q99558)", "remaining activity [%]": 99.1}
{"target": "Serine/threonine-protein kinase ULK3 (ULK3, Homo sapiens, UniProt Q6PHR2)", "remaining activity [%]": 108}
{"target": "Tyrosine-protein kinase FRK (FRK, Homo sapiens, UniProt P42685)", "remaining activity [%]": 93.8}
{"target": "Serine/threonine-protein kinase Nek1 (NEK1, Homo sapiens, UniProt Q96PY6)", "remaining activity [%]": 125}
{"target": "Rhodopsin kinase GRK7 (GRK7, Homo sapiens, UniProt Q8WTQ7)", "remaining activity [%]": 99.6}
{"target": "Angiopoietin-1 receptor (TEK, Homo sapiens, UniProt Q02763)", "remaining activity [%]": 98.4}
{"target": "Casein kinase I isoform gamma-3 (CSNK1G3, Homo sapiens, UniProt Q9Y6M4)", "remaining activity [%]": 100}
{"target": "Fibroblast growth factor receptor 1 (FGFR1, Homo sapiens, UniProt P11362)", "remaining activity [%]": 103}
{"target": "Ephrin type-A receptor 3 (EPHA3, Homo sapiens, UniProt P29320)", "remaining activity [%]": 99.5}
{"target": "Serine/threonine-protein kinase ULK2 (ULK2, Homo sapiens, UniProt Q8IYT8)", "remaining activity [%]": 103}
{"data": "Study 2", "Compound": "NS(=O)(=O)c1cc(NC(=O)Cc2ccccc2)ccc1Oc1cccc(Cl)c1", "read-out": "cell-free assay", "technique": "competition with immobilised ligand", "tested at": "1 µM"}
{"target": "Phosphatidylinositol 4,5-bisphosphate 3-kinase catalytic subunit alpha isoform (PIK3CA, Homo sapiens, UniProt P42336, H1047L)", "remaining binding [%]": 96}
{"target": "Angiopoietin-1 receptor (TEK, Homo sapiens, UniProt Q02763)", "remaining binding [%]": 90}
{"target": "Tyrosine-protein kinase Mer (MERTK, Homo sapiens, UniProt Q12866)", "remaining binding [%]": 82}
{"target": "Phosphatidylinositol 4,5-bisphosphate 3-kinase catalytic subunit alpha isoform (PIK3CA, Homo sapiens, UniProt P42336, E545K)", "remaining binding [%]": 77}
{"target": "Beta-adrenergic receptor kinase 1 (GRK2, Homo sapiens, UniProt P25098)", "remaining binding [%]": 97}
{"target": "Serine/threonine-protein kinase PRP4 homolog (PRPF4B, Homo sapiens, UniProt Q13523)", "remaining binding [%]": 97}
{"data": "Study 3", "sample": "1,9-decadiene/PBS", "pH": "7.4"}
{"SMILES": "CC(C)C[C@@H]1NC(=O)[C@H](CC(C)C)NC(=O)[C@H](CC(C)C)NC(=O)[C@H](C(C)C)NC(=O)[C@@H](Cc2cscn2)NC(=O)[C@H](Cc2cscn2)NC(=O)[C@H](CCC(=O)N2CCCC2)NC1=O", "logD": -1.68}
{"SMILES": "CC(C)C[C@@H]1NC(=O)[C@H](CC(C)C)NC(=O)[C@@H](CC(C)C)NC(=O)[C@H](C)NC(=O)[C@@H](Cc2cscn2)NC(=O)[C@H](C)NC(=O)[C@H](CCC(=O)N2CCCC2)NC1=O", "logD": -3.03}
{"SMILES": "CC(C)C[C@@H]1NC(=O)[C@@H](C)NC(=O)[C@H](CCC(=O)N2CCCC2)NC(=O)[C@@H](C(C)C)NC(=O)[C@H](C(C)C)NC(=O)[C@H](CC(C)C)NC(=O)[C@@H](CC(C)C)NC1=O", "logD": -0.66}
{"SMILES": "CC(C)C[C@@H]1NC(=O)[C@H](Cc2cscn2)NC(=O)[C@H](CCC(=O)N2CCCC2)NC(=O)[C@H](C)NC(=O)[C@@H](CCC(=O)N2CCCC2)NC(=O)[C@H](CC(C)C)NC(=O)[C@@H](CC(C)C)NC1=O", "logD": -2.89}
{"SMILES": "CC(C)C[C@@H]1NC(=O)[C@H](C(C)C)NC(=O)[C@H](CCC(=O)N2CCCC2)NC(=O)[C@H](CCC(=O)N2CCCC2)NC(=O)[C@@H](Cc2cscn2)NC(=O)[C@H](CC(C)C)NC(=O)[C@@H](CC(C)C)NC1=O", "logD": -2.58}
{"data": "Study 4", "Structure (SMILES)": "NC(N)=NC(=O)c1nc(Cl)c(N2CCCCCC2)nc1N", "read-out": "β-arrestin recruitment", "action": "agonist", "technique": "PRESTO-Tango", "tested at": "10 µM", "baseline": "untreated"}
{"target": "Lysophosphatidic acid receptor 4 (LPAR4, Homo sapiens, UniProt Q99677)", "fold over basal": 0.82}
{"target": "Gamma-aminobutyric acid type B receptor subunit 1 (GABBR1, Homo sapiens, UniProt Q9UBS5)", "fold over basal": "1.11 fold"}
{"target": "Alpha-1D adrenergic receptor (ADRA1D, Homo sapiens, UniProt P25100)", "fold over basal": 0.92}
{"target": "Leukotriene B4 receptor 2, isoform b (LTB4R2, Homo sapiens, UniProt Q9NPC1)", "fold over basal": 0.75}
{"target": "Proteinase-activated receptor 3 (F2RL2, Homo sapiens, UniProt O00254)", "fold over basal": 1.17}
{"note": "Some of these lines once more (study 1):"}
{"target": "Mitogen-activated protein kinase kinase kinase 14 (MAP3K14, Homo sapiens, UniProt Q99558)", "remaining activity [%]": 99.1}
{"target": "Serine/threonine-protein kinase ULK3 (ULK3, Homo sapiens, UniProt Q6PHR2)", "remaining activity [%]": 108}
{"target": "Tyrosine-protein kinase FRK (FRK, Homo sapiens, UniProt P42685)", "remaining activity [%]": 93.8}
